Published values of several laboratories.
Each numbered part is a random draw from the data of one study; scales do not carry over between parts.
UniProt P06493, sequence (whole entry, looked up): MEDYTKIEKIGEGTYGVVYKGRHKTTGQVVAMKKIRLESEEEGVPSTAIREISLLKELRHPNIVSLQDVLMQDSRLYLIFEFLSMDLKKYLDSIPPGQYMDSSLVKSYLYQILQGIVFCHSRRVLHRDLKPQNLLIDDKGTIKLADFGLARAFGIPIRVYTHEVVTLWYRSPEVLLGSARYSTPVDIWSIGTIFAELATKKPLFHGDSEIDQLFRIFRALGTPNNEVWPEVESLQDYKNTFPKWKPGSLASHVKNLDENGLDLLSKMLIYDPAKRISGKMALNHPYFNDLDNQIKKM
UniProt P49761, sequence (whole entry, looked up): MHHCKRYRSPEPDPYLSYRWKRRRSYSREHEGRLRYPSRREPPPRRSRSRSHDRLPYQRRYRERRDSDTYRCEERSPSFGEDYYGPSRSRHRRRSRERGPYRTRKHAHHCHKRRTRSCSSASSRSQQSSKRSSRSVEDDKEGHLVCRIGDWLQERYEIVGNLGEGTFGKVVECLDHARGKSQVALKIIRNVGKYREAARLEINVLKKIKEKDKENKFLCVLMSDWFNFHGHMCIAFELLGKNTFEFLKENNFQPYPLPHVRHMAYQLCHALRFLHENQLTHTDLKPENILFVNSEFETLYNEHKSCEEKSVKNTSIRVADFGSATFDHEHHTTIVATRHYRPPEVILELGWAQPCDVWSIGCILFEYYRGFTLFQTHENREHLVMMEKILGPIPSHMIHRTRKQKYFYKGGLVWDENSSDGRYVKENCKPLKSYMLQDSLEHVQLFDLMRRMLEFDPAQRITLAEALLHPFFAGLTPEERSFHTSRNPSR
UniProt Q6P2M8, sequence (whole entry, looked up): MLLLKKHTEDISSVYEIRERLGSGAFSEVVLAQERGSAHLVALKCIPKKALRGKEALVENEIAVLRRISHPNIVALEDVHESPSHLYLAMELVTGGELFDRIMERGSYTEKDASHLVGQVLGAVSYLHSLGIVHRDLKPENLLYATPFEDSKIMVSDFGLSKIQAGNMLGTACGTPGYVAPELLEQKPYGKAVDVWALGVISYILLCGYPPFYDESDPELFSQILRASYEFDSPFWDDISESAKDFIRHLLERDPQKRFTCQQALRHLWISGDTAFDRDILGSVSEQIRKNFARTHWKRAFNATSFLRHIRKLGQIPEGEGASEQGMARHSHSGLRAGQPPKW
UniProt O75676, sequence (whole entry, looked up): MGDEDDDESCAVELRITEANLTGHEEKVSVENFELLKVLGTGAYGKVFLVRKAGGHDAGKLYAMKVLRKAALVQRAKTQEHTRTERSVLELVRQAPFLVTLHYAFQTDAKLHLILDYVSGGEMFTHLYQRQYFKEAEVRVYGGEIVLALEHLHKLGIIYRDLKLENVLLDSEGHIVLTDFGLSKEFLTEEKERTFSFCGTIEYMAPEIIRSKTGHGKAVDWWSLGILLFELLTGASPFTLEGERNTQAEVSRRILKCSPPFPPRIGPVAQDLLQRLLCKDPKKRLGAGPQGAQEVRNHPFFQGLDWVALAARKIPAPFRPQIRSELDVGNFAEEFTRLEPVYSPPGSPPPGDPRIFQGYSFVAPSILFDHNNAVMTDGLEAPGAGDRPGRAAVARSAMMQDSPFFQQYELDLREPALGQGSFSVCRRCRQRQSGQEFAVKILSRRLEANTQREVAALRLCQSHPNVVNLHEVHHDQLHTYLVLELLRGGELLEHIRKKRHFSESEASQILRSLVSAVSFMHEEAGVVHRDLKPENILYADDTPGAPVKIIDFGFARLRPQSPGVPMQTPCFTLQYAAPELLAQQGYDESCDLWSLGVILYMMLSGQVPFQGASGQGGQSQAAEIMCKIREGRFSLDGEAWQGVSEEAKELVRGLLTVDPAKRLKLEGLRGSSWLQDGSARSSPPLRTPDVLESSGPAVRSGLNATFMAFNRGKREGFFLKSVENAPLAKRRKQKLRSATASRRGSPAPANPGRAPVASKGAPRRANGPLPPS

Set 1 — observed: binding; technique: radioligand binding; tested at: 10 µM
Target: D(4) dopamine receptor (DRD4, Homo sapiens, UniProt P21917)
UniProt P21917, sequence (whole entry, looked up): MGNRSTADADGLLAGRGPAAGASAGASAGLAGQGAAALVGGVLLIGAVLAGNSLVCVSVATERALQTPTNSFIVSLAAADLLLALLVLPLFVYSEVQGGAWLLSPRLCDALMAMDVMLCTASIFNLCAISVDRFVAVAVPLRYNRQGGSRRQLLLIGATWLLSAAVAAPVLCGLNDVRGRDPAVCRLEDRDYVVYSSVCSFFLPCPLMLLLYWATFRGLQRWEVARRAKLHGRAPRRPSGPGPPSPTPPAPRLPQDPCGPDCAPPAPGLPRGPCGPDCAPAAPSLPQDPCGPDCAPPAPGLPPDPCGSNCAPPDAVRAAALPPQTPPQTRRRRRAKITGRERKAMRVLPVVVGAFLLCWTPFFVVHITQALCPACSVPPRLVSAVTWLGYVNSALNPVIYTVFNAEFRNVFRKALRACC
SMILES | inhibition [%]
CC(=O)c1c(NS(C)(=O)=O)c2cc(-c3ccc(Cl)cc3)c(-c3ccc(Cl)cc3Cl)nc2n(C)c1=O | 17.1
C[C@@H]1CN(c2cc(-c3nn(C)c4ccc(OC5(C)CC5)cc34)ncn2)C[C@H](C)O1 | -2.65
Cc1nc(Cc2cccc(C(F)(F)F)c2)sc1-c1ccc(C(N)=O)nc1 | -2.16
CN([C@@H]1CCc2c(CC(=O)O)c3cc(S(C)(=O)=O)ccc3n2C1)S(=O)(=O)c1ccc(F)cc1 | 2.8
O[C@]1(C(F)(F)F)CCCC[C@H]1Nc1ccc(F)cc1 | -4.08
CN1C(=O)[C@@H](N2CCc3cn(Cc4ccccc4)nc3C2=O)COc2ccccc21 | 17.4

Set 2 — Structure (SMILES): CNc1cc2c(Nc3cccc(Br)c3)ncnc2cn1; observed: enzyme activity; mode: inhibitor; tested at: 0.5 µM; reference: control
target | remaining activity
MAP2K1 (Homo sapiens, UniProt Q02750) | 74.6%
ROCK1 (Homo sapiens, UniProt Q13464) | 98.8%
PAK3 (Homo sapiens, UniProt O75914) | 98.8%
PNCK (Homo sapiens, UniProt Q6P2M8) | 100%
Cyclin-dependent kinase 1, with cyclin A (CDK1, Homo sapiens, UniProt P06493) | 86.5%
TXK (Homo sapiens, UniProt P42681) | 79.9%
MARK4 (Homo sapiens, UniProt Q96L34) | 84.5%
GRK4 (Homo sapiens, UniProt P32298) | 98.2%
MAPK14 (Homo sapiens, UniProt Q16539) | 90%
DCLK2 (Homo sapiens, UniProt Q8N568) | 90.4%
RPS6KA4 (Homo sapiens, UniProt O75676) | 109%
CLK3 (Homo sapiens, UniProt P49761) | 87.6%
TLK2 (Homo sapiens, UniProt Q86UE8) | 114%
DDR2 (Homo sapiens, UniProt Q16832) | 100%

Set 3 — sample: plasma; route: oral
SMILES: COc1ccc(-c2c(Nc3ccccn3)[nH]c3c(C4=CCCCC4)c(-c4ccccc4)nn3c2=O)cc1
assay | system | conditions | plasma concentration, mean [ng/mL]
– | cancer patients | 150 mg, 24 h post-dose, single dose | 801
– | human patients | 400 mg once daily, 6 h, cycle 1 | 3870
– | human patients | 400 mg once daily, 2 h, cycle 1 | 3710
– | cancer patients | 150 mg, 0.5 h post-dose, single dose | 405
LC-MS/MS | human | 50 mg once daily, 8 h, cycle 1 | 1590
– | human patients | 200 mg once daily, 6 h, cycle 1 | 6650
– | human patients | 150 mg once daily, 6 h, cycle 1 | 5270
LC-MS/MS | human | 200 mg twice daily, 0 h | 11400
– | human patients | 200 mg once daily, 2 h, cycle 1 | 7460
– | human patients | 100 mg once daily, 6 h, cycle 1 | 3730

Set 4 — observed: enzyme activity; mode: inhibitor; tested at: 77 µM; reference: untreated
Target: DNA polymerase theta, ATPase domain (POLQ, Homo sapiens, UniProt O75417)
UniProt O75417, sequence (whole entry, unmodified, looked up): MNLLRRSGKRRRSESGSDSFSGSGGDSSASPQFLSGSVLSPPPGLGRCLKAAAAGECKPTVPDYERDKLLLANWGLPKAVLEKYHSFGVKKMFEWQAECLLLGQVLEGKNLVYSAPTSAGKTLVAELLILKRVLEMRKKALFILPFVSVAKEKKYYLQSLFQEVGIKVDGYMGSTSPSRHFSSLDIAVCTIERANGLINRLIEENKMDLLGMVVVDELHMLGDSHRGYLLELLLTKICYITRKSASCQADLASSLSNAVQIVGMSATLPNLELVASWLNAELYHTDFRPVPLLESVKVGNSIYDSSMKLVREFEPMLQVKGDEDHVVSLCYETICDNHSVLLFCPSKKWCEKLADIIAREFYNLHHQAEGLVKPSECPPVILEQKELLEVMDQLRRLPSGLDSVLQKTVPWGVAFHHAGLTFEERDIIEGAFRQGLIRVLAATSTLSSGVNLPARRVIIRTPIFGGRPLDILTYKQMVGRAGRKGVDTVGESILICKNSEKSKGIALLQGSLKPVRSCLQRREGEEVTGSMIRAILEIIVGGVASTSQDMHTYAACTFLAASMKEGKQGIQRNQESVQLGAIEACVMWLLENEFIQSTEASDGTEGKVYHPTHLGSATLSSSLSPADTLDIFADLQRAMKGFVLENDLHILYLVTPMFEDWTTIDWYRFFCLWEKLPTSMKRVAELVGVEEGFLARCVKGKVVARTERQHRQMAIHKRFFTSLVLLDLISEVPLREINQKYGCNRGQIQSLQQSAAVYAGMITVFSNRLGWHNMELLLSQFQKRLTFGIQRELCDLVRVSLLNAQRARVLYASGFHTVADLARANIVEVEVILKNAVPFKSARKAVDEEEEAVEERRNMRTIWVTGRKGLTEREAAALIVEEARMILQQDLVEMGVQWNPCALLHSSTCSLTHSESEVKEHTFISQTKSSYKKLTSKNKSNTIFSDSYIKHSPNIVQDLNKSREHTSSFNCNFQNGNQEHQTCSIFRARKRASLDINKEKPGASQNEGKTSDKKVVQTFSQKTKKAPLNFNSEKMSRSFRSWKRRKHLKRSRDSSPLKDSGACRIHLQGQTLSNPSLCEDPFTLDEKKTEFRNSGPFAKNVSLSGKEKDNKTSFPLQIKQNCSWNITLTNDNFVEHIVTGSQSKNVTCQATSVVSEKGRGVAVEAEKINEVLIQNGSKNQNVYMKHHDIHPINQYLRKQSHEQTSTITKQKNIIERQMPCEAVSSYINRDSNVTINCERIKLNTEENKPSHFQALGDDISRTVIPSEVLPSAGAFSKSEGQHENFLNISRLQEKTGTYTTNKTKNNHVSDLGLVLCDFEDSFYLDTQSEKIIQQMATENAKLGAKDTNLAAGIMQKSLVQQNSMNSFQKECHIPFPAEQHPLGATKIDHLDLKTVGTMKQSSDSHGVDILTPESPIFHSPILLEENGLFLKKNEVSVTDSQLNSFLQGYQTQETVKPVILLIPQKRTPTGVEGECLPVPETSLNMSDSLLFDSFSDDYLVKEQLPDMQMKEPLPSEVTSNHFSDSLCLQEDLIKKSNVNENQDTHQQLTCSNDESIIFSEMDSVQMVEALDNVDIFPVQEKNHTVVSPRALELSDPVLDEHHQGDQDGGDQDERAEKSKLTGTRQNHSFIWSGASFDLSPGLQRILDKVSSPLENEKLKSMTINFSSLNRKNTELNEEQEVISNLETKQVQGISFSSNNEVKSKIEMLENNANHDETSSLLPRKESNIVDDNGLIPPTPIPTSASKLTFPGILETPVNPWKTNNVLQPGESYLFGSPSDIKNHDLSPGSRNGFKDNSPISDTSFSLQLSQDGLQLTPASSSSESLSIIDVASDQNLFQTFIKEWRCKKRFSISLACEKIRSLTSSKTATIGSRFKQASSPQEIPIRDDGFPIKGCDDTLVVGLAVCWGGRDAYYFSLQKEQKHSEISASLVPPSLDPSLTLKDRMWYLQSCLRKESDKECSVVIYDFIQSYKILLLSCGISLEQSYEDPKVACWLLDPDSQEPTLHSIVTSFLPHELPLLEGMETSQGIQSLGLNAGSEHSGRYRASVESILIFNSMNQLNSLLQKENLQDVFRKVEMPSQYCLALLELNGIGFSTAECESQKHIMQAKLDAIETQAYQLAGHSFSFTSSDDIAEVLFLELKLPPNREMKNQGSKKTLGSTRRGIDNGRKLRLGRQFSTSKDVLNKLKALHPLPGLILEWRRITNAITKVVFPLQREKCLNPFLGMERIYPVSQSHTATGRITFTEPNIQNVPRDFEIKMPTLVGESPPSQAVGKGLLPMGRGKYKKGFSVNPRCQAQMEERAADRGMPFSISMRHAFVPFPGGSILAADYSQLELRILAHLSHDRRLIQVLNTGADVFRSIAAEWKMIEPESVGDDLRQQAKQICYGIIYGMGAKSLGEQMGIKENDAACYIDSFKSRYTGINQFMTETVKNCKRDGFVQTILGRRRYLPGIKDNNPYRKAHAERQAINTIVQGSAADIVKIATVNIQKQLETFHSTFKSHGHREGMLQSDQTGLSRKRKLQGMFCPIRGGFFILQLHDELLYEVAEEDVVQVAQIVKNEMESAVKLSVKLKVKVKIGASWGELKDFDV
SMILES | remaining activity
Cc1cccc(C#Cc2ccccc2)n1 | 82.9%
Cc1cc2c(cc1Cl)N(C(=O)Nc1cccc3ncccc13)CC2 | 96.1%
Nc1nc(OCc2cc(Br)cs2)c2[nH]cnc2n1 | 82.4%
Nc1ccn([C@@H]2O[C@H](CO)[C@@H](O)[C@@H]2O)c(=O)n1 | 96.1%
CC1CC(OC(=O)C(O)c2ccccc2)CC(C)(C)N1C (centres unmarked) | 95.5%
CCNc1nc2c(ncn2[C@H]2C[C@H](O)[C@@H](CO)O2)c(=O)[nH]1 | 98.3%
COc1cc2c(Oc3ccc4[nH]c(C)cc4c3F)ncnc2cc1OCCCN1CCCC1 | 105%
N#C/C(=C\c1ccc(O)c(O)c1)C(=O)NCCCNC(=O)/C(C#N)=C/c1ccc(O)c(O)c1 | 90.3%
C=CCOc1ccccc1OCC(O)CNC(C)C (centres unmarked) | 102%
CC(C)OC(=O)C(C(=O)OC(C)C)=C1SC=CS1 | 96.6%
CC(C(=O)O)c1ccc(C(=O)c2ccccc2)s1 (centres unmarked) | 91.6%

A few entries again (set 1):
SMILES | inhibition [%]
C[C@@H]1CN(c2cc(-c3nn(C)c4ccc(OC5(C)CC5)cc34)ncn2)C[C@H](C)O1 | -2.65
CC(=O)c1c(NS(C)(=O)=O)c2cc(-c3ccc(Cl)cc3)c(-c3ccc(Cl)cc3Cl)nc2n(C)c1=O | 17.1
O[C@]1(C(F)(F)F)CCCC[C@H]1Nc1ccc(F)cc1 | -4.08
